# Published values of several laboratories.
# Compare with care: the assays were run in different laboratories.
# Target: Phosphatidylinositol 4-phosphate 3-kinase C2 domain-containing subunit beta (PIK3C2B, Homo sapiens, UniProt O00750)
# Chain of UniProt O00750 (whole entry, unmodified, looked up): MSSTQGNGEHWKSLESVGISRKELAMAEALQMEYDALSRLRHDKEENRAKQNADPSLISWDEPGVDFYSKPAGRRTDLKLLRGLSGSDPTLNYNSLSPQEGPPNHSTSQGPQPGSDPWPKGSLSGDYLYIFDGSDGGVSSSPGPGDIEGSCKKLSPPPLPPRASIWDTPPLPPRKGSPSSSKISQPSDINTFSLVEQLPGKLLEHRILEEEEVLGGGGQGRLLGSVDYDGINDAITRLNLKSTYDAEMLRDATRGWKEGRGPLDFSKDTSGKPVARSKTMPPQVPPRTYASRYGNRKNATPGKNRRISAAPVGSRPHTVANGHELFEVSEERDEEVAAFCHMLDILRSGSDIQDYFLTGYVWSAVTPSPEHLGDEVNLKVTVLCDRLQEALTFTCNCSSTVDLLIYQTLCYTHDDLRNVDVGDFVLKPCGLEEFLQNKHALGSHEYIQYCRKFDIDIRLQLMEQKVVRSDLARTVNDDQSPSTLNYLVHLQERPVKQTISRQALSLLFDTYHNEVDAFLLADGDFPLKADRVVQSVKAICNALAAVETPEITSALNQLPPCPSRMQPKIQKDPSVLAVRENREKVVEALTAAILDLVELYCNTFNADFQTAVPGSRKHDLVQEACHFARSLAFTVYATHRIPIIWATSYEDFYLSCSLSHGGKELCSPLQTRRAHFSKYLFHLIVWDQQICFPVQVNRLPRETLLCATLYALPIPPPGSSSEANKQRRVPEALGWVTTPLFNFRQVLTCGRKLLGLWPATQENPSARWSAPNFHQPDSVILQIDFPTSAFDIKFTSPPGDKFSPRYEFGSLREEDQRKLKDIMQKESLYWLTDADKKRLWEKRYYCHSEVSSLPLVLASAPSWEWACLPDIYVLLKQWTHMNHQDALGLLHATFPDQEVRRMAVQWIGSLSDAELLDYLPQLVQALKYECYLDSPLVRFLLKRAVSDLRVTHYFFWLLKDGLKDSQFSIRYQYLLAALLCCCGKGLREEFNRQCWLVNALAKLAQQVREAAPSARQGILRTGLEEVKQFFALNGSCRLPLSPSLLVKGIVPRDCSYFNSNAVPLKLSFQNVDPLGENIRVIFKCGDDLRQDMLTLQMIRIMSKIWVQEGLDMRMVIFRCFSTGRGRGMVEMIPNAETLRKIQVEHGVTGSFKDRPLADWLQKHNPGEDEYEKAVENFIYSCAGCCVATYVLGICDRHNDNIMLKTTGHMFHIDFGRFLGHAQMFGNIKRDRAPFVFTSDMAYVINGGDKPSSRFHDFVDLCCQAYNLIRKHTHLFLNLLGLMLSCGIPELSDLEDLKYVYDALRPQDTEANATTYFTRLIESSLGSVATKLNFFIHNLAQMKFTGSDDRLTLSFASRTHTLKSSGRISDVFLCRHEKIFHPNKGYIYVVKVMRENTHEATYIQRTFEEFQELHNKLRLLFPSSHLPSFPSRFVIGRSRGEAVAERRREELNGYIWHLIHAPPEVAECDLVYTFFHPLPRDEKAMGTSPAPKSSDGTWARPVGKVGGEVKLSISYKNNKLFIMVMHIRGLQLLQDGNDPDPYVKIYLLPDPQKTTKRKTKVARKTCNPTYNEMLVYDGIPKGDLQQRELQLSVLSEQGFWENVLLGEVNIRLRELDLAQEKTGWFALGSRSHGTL
SMILES,test,setting,how to read,quantity,result
CNS(=O)(=O)Nc1nccc(Cc2c(C)c3ccc(Oc4ncccc4F)cc3oc2=O)c1F,"cell-free assay, competition with immobilised ligand",10 µM,,remaining binding,97%
CCN1CCN(Cc2ccc(C(=O)Nc3ccc(C)c(NCc4cnc5[nH]ccc5c4OC)c3)cc2C(F)(F)F)CC1,"binding, competition with immobilised ligand",1 µM,,remaining binding,79%
C=CC(=O)N1CCCC(n2c(=O)c3ncccc3n(Cc3ccc(Oc4ccccc4)cc3)c2=O)C1 (stereo not drawn),"cell-free assay, competition with immobilised ligand",1 µM,,remaining binding,63%
CN1CCN(Cc2ccc(NC(=O)c3cccc(C#Cc4cnc(N)c5ncccc45)c3)cc2C(F)(F)F)CC1,"cell-free assay, competition with immobilised ligand",50 nM,,remaining binding,85%
CC(C)=CC1OC(C)(C)C2C=C3C(=O)C(Cl)=CC(O)C3C3C(O)C4OC4C(=O)C132 (stereo not drawn),"cell-free assay, competition with immobilised ligand",10 µM,,remaining binding,58%
CNC1C[S+]2CC[S+]3CC[S+](C1)[Ru-4]321([N]=C=S)[n]2c3ccc(OC)cc3c3c4c(c5cc(F)c[n+]1c5c32)C(=O)NC4=O (stereo not drawn),KinomeScan,0.1 µM,relative to: untreated,remaining binding,100%
C=CC(=O)N1CCc2ccc(-n3c(=O)ccc4cnc5ccc(-c6cnn(C)c6)cc5c43)cc21,KINOMEscan,1 µM,relative to: DMSO control,remaining binding,100%
CC(=O)N1c2ccc(-c3ccc(CNC(=O)c4cn5cc(-c6cnc(N)nc6)nc(N6CCOCC6)c5n4)cc3)cc2CC[C@@H]1C,"binding, competition with immobilised ligand",10 µM,,remaining binding,90%
COc1cc(Nc2nc(C)cc(-c3cnn4nc(OC)ccc34)n2)cc(C(F)(F)F)c1,inhibitor,1 µM,relative to: control,remaining activity,100%
Cc1cnc2nc1Nc1cccc(c1)COC/C=C/COCc1cc(ccc1OCCN1CCOCC1)N2,binding,0.1 µM,,remaining binding,80%
Cc1cc(NC(=O)[C@H](O)c2cc(F)cc(F)c2)ccc1-c1cnc(N)c(C(=O)NC(C)C)c1,"binding, competition with immobilised ligand",0.1 µM,,remaining binding,85%
CC(=O)c1cnc(N)nc1N1CC[C@H]1c1nn2ccc(Cl)c2c(=O)n1-c1ccccc1,KINOMEscan competition binding,10 µM,,remaining binding,60%

# Repeated from above:
SMILES,test,setting,how to read,quantity,result
C=CC(=O)N1CCCC(n2c(=O)c3ncccc3n(Cc3ccc(Oc4ccccc4)cc3)c2=O)C1 (stereo not drawn),"cell-free assay, competition with immobilised ligand",1 µM,,remaining binding,63%
CNS(=O)(=O)Nc1nccc(Cc2c(C)c3ccc(Oc4ncccc4F)cc3oc2=O)c1F,"cell-free assay, competition with immobilised ligand",10 µM,,remaining binding,97%
